# Measurements pooled from the literature.
# Compare with care: the assays were run in different laboratories. Several values in a cell are separate wells, animals, samples, runs or records. ± marks the error that the study gave.
# Proteasome subunit beta type-9: Proteasome subunit beta type-9 (Homo sapiens, UniProt P28065)
# Chain of UniProt P28065 (whole entry, looked up): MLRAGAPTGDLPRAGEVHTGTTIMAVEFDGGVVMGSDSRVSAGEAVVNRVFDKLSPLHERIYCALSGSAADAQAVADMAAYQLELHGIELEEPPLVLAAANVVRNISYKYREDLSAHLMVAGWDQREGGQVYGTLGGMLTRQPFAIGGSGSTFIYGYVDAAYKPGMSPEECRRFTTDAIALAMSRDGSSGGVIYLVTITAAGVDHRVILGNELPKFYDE
# FGR: Tyrosine-protein kinase Fgr (FGR, Homo sapiens, UniProt P09769)
# Chain of UniProt P09769 (whole entry, looked up): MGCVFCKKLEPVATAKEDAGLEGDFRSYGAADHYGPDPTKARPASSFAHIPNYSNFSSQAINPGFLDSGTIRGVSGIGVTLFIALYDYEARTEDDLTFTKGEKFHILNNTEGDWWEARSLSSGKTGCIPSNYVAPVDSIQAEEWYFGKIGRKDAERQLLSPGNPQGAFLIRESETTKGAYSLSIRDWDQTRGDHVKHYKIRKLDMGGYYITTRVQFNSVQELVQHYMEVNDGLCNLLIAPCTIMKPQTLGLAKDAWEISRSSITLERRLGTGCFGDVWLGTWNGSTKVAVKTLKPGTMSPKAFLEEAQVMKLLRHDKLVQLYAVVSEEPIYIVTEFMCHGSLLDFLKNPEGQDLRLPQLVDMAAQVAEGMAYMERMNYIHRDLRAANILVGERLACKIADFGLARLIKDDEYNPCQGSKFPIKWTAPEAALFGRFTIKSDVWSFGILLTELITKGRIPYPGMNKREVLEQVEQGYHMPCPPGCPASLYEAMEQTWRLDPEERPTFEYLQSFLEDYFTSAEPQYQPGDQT
# P2RX4: P2X purinoceptor 4 (P2RX4, Homo sapiens, UniProt Q99571)
# Chain of UniProt Q99571 (whole entry, looked up): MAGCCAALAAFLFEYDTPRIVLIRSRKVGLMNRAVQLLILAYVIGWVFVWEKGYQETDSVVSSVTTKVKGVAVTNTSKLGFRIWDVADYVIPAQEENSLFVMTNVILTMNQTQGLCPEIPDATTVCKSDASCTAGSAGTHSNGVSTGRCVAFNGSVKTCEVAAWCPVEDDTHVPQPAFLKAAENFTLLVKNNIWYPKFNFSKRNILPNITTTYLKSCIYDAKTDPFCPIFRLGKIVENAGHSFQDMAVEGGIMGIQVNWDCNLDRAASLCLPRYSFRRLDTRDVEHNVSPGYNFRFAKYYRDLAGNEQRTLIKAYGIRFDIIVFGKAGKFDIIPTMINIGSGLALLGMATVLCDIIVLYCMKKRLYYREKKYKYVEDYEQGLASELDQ
# PADI4: Protein-arginine deiminase type-4 (PADI4, Homo sapiens, UniProt Q9UM07)
# Chain of UniProt Q9UM07 (whole entry, looked up): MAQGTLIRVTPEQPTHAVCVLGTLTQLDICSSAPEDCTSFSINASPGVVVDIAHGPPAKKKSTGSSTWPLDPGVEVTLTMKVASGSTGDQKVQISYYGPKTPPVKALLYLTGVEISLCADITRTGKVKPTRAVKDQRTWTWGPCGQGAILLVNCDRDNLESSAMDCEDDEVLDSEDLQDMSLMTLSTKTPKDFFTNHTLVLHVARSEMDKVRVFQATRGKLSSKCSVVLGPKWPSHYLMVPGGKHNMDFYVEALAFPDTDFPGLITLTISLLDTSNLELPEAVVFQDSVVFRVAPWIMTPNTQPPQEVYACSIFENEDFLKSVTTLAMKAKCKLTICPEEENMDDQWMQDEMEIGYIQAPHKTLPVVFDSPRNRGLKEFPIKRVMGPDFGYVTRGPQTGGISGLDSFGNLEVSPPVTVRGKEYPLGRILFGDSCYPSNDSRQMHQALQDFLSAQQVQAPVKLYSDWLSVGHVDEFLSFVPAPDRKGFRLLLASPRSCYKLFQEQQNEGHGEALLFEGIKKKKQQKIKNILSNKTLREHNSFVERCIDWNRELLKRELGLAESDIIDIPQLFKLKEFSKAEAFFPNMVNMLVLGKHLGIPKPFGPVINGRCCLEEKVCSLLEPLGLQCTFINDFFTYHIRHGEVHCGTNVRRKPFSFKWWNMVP
# Probable G-protein coupled receptor 34: Probable G-protein coupled receptor 34 (Homo sapiens, UniProt Q9UPC5)
# Chain of UniProt Q9UPC5 (whole entry, looked up): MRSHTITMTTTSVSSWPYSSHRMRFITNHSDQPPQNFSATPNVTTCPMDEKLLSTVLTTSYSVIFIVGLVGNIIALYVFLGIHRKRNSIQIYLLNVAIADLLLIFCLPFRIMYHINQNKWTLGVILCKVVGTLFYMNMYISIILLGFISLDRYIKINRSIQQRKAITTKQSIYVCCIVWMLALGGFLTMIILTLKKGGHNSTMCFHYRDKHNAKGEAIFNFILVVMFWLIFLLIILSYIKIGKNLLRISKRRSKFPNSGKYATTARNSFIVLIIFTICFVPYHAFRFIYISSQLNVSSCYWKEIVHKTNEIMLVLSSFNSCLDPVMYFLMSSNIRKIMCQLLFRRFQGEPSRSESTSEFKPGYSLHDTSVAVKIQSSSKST
# Chain of UniProt Q8C6L5 (whole entry, looked up): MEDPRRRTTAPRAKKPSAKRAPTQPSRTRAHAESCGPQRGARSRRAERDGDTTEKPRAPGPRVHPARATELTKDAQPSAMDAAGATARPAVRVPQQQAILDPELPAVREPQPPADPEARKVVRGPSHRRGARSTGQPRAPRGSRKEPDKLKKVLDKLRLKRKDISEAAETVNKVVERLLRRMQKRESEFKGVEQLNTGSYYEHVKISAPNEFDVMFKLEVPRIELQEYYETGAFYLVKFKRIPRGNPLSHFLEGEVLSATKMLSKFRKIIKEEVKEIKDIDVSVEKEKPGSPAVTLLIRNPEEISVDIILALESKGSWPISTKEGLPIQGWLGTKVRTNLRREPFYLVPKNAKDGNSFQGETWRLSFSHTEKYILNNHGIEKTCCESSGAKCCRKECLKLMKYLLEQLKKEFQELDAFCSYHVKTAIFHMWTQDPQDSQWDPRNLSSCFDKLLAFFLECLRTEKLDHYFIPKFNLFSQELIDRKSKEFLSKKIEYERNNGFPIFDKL
# Chain of UniProt O09061 (whole entry, looked up): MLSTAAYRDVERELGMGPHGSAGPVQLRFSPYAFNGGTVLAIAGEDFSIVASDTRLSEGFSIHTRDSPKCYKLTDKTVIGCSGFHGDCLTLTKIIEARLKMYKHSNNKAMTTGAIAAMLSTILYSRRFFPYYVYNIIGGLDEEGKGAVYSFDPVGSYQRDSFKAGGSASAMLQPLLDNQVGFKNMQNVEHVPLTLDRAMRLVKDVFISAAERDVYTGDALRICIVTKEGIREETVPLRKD
# Chain of UniProt P48729 (whole entry, looked up): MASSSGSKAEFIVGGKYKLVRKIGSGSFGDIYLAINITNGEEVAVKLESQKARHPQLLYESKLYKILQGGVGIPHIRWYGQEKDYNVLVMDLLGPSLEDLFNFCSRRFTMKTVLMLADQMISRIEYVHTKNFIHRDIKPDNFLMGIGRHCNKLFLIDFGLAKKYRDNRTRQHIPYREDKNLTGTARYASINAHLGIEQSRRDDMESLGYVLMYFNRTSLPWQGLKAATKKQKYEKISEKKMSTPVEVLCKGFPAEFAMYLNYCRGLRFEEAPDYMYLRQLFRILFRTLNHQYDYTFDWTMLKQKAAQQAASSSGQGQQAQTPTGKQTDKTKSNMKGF
# Chain of UniProt P15145 (whole entry, looked up): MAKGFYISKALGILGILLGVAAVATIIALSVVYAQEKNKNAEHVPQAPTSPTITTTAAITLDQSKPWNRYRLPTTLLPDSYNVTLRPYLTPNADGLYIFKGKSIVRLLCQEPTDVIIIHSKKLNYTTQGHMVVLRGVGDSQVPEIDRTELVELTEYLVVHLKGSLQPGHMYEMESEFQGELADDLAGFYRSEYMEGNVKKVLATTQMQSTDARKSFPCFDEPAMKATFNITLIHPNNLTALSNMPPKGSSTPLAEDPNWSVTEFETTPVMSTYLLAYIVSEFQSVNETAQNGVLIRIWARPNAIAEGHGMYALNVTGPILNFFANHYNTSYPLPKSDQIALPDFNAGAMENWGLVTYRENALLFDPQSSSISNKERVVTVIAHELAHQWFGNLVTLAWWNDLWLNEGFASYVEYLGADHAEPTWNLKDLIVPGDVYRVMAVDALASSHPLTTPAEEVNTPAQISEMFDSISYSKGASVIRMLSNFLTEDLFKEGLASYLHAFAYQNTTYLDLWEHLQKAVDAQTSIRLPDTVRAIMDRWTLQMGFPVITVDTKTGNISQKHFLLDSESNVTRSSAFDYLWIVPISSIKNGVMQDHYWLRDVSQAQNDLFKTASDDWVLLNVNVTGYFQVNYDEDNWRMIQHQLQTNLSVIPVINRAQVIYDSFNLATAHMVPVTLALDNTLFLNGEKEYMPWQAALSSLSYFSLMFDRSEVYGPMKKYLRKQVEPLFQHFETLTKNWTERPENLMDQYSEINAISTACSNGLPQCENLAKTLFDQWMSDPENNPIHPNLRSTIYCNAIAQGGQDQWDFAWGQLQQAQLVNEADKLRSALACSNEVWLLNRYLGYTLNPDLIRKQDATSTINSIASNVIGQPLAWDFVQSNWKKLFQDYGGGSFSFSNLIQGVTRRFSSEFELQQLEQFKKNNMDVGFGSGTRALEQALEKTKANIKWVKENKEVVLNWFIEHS
# Chain of UniProt Q99705 (whole entry, looked up): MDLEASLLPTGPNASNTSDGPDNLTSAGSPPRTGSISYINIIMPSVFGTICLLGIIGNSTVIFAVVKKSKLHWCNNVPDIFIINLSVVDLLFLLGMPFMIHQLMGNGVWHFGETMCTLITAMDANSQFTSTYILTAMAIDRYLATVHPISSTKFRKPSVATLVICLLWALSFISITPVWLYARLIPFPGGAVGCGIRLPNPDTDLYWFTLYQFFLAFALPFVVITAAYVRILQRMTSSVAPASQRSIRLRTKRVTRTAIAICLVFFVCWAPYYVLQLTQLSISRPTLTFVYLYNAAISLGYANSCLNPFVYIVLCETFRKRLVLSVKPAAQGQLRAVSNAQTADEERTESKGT
# Chain of UniProt B7GZW7 (whole entry, looked up): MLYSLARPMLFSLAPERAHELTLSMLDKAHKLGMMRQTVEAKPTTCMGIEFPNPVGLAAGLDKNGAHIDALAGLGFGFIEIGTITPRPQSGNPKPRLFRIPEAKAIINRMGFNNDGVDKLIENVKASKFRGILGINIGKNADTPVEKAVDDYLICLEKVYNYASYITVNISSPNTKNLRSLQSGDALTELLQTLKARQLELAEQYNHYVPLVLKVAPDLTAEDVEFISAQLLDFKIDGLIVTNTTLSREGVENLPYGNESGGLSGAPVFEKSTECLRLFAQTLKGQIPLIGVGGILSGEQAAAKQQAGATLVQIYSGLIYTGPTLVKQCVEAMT
Compound,tested on,test,system,setting,scale,measurement,result
Cc1nc(-c2cnc(NC(C)C)n(C)c2=O)ccc1Oc1ccnc(-c2cnn(C)c2)c1,"Cytochrome P450 2C9 (CYP2C9, Homo sapiens, UniProt P11712)","metabolism-dependent inhibition, inhibitor",,30 min preincubation with NADPH,,IC50,88 µM
C[C@H]1CN(C2COC2)CCN1c1ccc(Nc2cc(-c3ccnc(N4CCn5c(cc6c5CC(C)(C)C6)C4=O)c3CO)cn(C)c2=O)nc1,"SRC (Homo sapiens, UniProt P12931)",,,,,IC50,1.16 µM
Cc1ncc(C(=O)N[C@@H](CC(C)C)C(=O)N[C@@H](CC2CCC(C)CC2)C(=O)N[C@H](/C=C/S(C)(=O)=O)Cc2ccc(CN)cc2)s1 (some centres unmarked),Proteasome subunit beta type-9,competitive ABPP,Raji cell lysate,,,IC50,> 10 µM
CC(C)C[C@H](NC(=O)[C@H](CCc1ccccc1)NC(=O)CN1CCOCC1)C(=O)N[C@@H](Cc1ccccc1)C(=O)N[C@@H](CC(C)C)C(=O)[C@@]1(C)CO1,"Proteasome subunit beta type-1/Psmb8, LMP7 subunit (Mus musculus, UniProt O09061+P28063)",proteasome subunit activity,Ba/F3 BCR-ABL1 H396P,1 h pulse,,IC50,0.00566 ± 0.00013 µM
COc1cc2nccc(Oc3ccc(NC(=O)c4cc5c(n(-c6ccccc6)c4=O)CCCC5=O)nc3)c2cc1OC,FGR,"cell viability, CellTiter-Glo",Ba/F3 expressing recombinant kinase,48 h,,IC50,> 0.1 µM
COc1ccc(N2CCNCC2COc2ccc3c(c2)OCO3)cc1 (centres unmarked),P2RX4,"Ca2+ flux, antagonist",human cells expressing P2RX4,racemate tested,,IC50,7.41 µM
Cc1ncc(C(=O)N[C@@H](CC2CCCC3CCCCC32)C(=O)N[C@@H](CC(C)C)C(=O)N[C@H](/C=C/S(C)(=O)=O)Cc2ccc(CN)cc2)s1 (some centres unmarked),Proteasome subunit beta type-9,competitive ABPP,Raji cell lysate,,,IC50,> 10 µM
CCN(CC)CCCC(C)Nc1ccnc2cc(Cl)ccc12 (centres unmarked),polyamine oxidase (rat),inhibitor,ischemic brain homogenate,together with: spermine,,IC50,40 µM
CC(C)C[C@H](NC(=O)[C@H](Cc1ccccc1)N=[N+]=[N-])C(=O)N[C@@H](CC(F)(F)F)C(=O)N[C@H](/C=C/S(C)(=O)=O)Cc1ccc(CN)cc1,Proteasome subunit beta type-9,competitive ABPP,Raji cell lysate,,,IC50,> 10 µM
Nc1nc(=O)n([C@H]2C[C@H](O)[C@@H](CO)O2)cc1CN(CC[C@H](N)C(=O)O)C[C@H]1O[C@@H](n2cnc3c(N)ncnc32)[C@H](O)[C@@H]1O,"DNMT1 (Homo sapiens, UniProt P26358)",,,"truncated enzyme, together with: 26 bp hemimethylated DNA, SAM 1 µM",,IC50,> 100 µM
FC(F)(F)c1ccc(N2CCNCC2COc2ccc3c(c2)OCO3)cc1 (centres unmarked),P2RX4,"Ca2+ flux, antagonist",human cells expressing P2RX4,racemate tested,,IC50,11 µM
CCCCC[C@H](CC(=O)NO)C(=O)N[C@H](C(=O)N1CCC[C@H]1CO)C(C)C,"Aminopeptidase N (ANPEP, Sus scrofa, UniProt P15145)",,,,,IC50,2 µM
Cc1cnc(NC(=O)C2=C(O)c3ccccc3S(=O)(=O)N2C)s1,"SLC22A11 (Homo sapiens, UniProt Q9NSA0)","transport, inhibitor",CHO expressing hOAT4,"5 min, together with: 6-carboxyfluorescein 25 µM",,IC50,10.7 ± 3.3 µM
O=S(=O)(c1cccnc1Cl)N1CCNCC1COc1ccc2ccccc2c1 (centres unmarked),P2RX4,"calcium flux, inhibitor, Ca2+ flux",human cells,,,IC50,4.07 ± 0.16 µM
COc1ccc(C[C@H](NC(=O)[C@H](C)NC(=O)CN2CCOCC2)C(=O)N[C@@H](CC2CCC(C3CCCCC3)CC2)C(=O)[C@@]2(C)CO2)cc1 (some centres unmarked),Proteasome subunit beta type-9,"inhibitor, competitive ABPP",Raji cell lysate,,,IC50,> 100 µM
CCCC[C@@H](C=O)NC(=O)[C@H](CC(C)C)NC(=O)OCc1ccccc1,"Presenilin-1, in γ-secretase complex (PSEN1, Homo sapiens, UniProt P49768)","gamma-secretase activity, inhibitor, AlphaLISA",,together with: Notch1 substrate,,IC50,0.24 ± 0.06 µM
CCCC[C@H](NC(=O)[C@H](C)c1c(C)[nH]c2ccc(O)cc12)c1ncc(-c2cc3ccccc3nc2OC)[nH]1,"MCHR1 (Homo sapiens, UniProt Q99705)",binding,,,,IC50,9.47 µM
CC[C@@H]1[C@H](F)C(=O)N[C@@H]1COc1nccc2cc(C(N)=O)c(OC)cc12,"CSNK1A1 (Homo sapiens, UniProt P48729)","ATP-site binding, ActivX KiNativ profiling",THP-1 cell lysate,Lys2 CK1a probe site,,IC50,> 5 µM
Nc1ccccc1C(=O)C[C@H](N)C(=O)O,,"binding, MIDAS equilibrium dialysis LC-MS",A2AR-BRIL thermostabilized,concentration not given,reference: no-protein control,log2 fold change,-0.136
Cc1cc(Nc2ccc(C(C)(C)C)cc2)n2ncnc2n1,"Dihydroorotate dehydrogenase (quinone) (pyrD, Acinetobacter baumannii, UniProt B7GZW7)","enzyme activity, inhibitor, DCIP steady-state rate",,,,IC50,0.44 ± 0.14 µM
c1cc(N2CCNCC2COc2ccc3c(c2)OCO3)ccn1 (centres unmarked),P2RX4,"Ca2+ flux, antagonist",human cells expressing P2RX4,racemate tested,,IC50,6.17 µM
FC(F)(F)CN1CC(n2cc(Oc3ccn4nc(Cl)cc4n3)cn2)C1,"CACNA1C (Homo sapiens, UniProt Q13936)",ion current,,,,IC50,> 30 µM
O=C(O)Cn1cnc2ccccc2c1=O,"Ubiquitin carboxyl-terminal hydrolase 16, ZnF-UBD domain (USP16, Homo sapiens, UniProt Q9Y5T5)",,,,,Kd,456 µM
Cc1oc(C)c(-c2ccc(N(CC(C)C)CC(C)C)c(NC(=O)Nc3cccc(B(O)O)c3)c2)c1C(=O)O,"IDO1 (Homo sapiens, UniProt P14902)","enzyme activity, inhibitor, recombinant enzyme, item: kynurenine",,"20 min, 2% DMSO, together with: L-tryptophan",,IC50,56 ± 5 µM
CN(C)C(=O)/N=N/C(=O)N(C)C,"Protein-arginine-phosphatase (ywle, Geobacillus stearothermophilus, UniProt S0F332)",,,"pH 7.6, 25 °C, together with: pNPP substrate",,IC50,4200 ± 300 µM
CC(=O)O[C@H]1C(=O)[C@@]2(C)[C@H]([C@H](OC(=O)c3ccccc3)[C@]3(O)C[C@H](OC(=O)[C@H](O)[C@@H](NC(=O)c4ccccc4)c4ccccc4)C(C)=C1C3(C)C)[C@]1(OC(C)=O)CO[C@@H]1C[C@@H]2O,"SLCO1B3 (Homo sapiens, UniProt Q9NPD5, M233I/S112A)","estradiol glucuronide uptake, inhibitor",SLCO1B3-expressing cells,"2 min, together with: 1 µM [3H]estradiol glucuronide",,IC50,47.2 ± 2.61 µM
NC(=O)C1=CN([C@@H]2O[C@H](COP(=O)(O)OP(=O)(O)OC[C@H]3O[C@@H](n4cnc5c(N)ncnc54)[C@H](OP(=O)(O)O)[C@@H]3O)[C@@H](O)[C@H]2O)C=CC1,,"binding, MIDAS equilibrium dialysis LC-MS",A2AR-BRIL thermostabilized,concentration not given,reference: no-protein control,log2 fold change,-0.576
Cc1nn(-c2nc3ccc(Cl)c(Cl)c3[nH]2)c(O)c1C1OC(=O)c2ccccc21 (centres unmarked),"Cgas (Mus musculus, UniProt Q8C6L5)","enzyme activity, inhibitor, pyrophosphatase-coupled",,mouse cGAS,,IC50,0.362 µM and 0.351 µM
COc1ccc(C(=O)Nc2ccc(-c3nc4ccccc4[nH]3)cc2)c(OC)c1,"Moesin, with CD44 (Homo sapiens, UniProt P26038)","MSN-CD44 binding, TR-FRET",,,,IC50,7.3 µM
CCn1c(-c2nc3cc(C(=O)N4CCC[C@@H](N)C4)cc(OC)c3n2C)cc2cccnc21,PADI4,"binding, fluorescence polarisation",,"together with: tracer displacement, 10 mM Ca2+",,IC50,2.2 µM
O=C1C[C@@H](c2ccc(O)cc2)Oc2cc(O)cc(O)c21,"MAOB (Homo sapiens, UniProt P27338)","enzyme activity, inhibitor",,together with: kynuramine 50 µM,,IC50,0.272 ± 0.022 µM
O=[N+]([O-])c1ccc(N2CCNCC2COc2ccc3c(c2)OCO3)cc1 (centres unmarked),P2RX4,"Ca2+ flux, antagonist",human cells expressing P2RX4,racemate tested,,IC50,> 10 µM
c1cc(-c2nc3ccc(OCCCN4CCCC4)cc3o2)ccc1OCCCN1CCCC1,Probable G-protein coupled receptor 34,"antagonist, Tango",,together with: LysoPS 5 µM,,IC50,> 10 µM
Cc1cnc(-c2ccc(-c3ccc(NC(=O)Nc4c(F)cc(F)cc4F)cc3F)c3c2C(=O)NC3)[nH]1,FGR,"enzyme activity, inhibitor, mobility shift",,together with: ATP 1 mM,,IC50,0.0821 µM
CCn1c(-c2nc3ccc(C(=O)N4CCCC(N)C4)cc3n2C)cc2ccccc21 (centres unmarked),PADI4,"enzyme activity, ammonia release",,"together with: BAEE substrate, 0.2 mM Ca2+",,IC50,> 100 µM
NCCCNCCCCCC(=O)C(F)(F)F,"Histone deacetylase 6, catalytic domain 2 (hdac6, Danio rerio, UniProt F8W4B7)","enzyme activity, inhibitor, fluorogenic substrate",,"enzyme 3 nM, catalytic domain 2, together with: substrate 16 µM",,IC50,1.4 µM
O=C1CN(c2nc(=O)c3cc(C(F)(F)F)cc([N+](=O)[O-])c3s2)CCN1C1CCCC1,"Cytochrome P450 2D6 (CYP2D6, Homo sapiens, UniProt P10635)",,,"60 (unit not given), pH 7.4",,IC50,> 10 µM
COc1cc(/C=C/C(=O)CC(=O)/C=C/c2ccc(O)c(OC)c2)ccc1O,"Superoxide dismutase [Cu-Zn], fully metallated (SOD1, Homo sapiens, UniProt P00441)","enzyme activity, inhibitor, XTT",,,,IC50,> 75 µM
C=C(C)C1CC=C(C)CC1 (centres unmarked),α-amylase,,,,,IC50,900 ± 100 µg/mL
N#Cc1ccc(N2CCNCC2COc2ccc3c(c2)OCO3)cc1 (centres unmarked),P2RX4,"calcium flux, inhibitor, Ca2+ flux",human cells,,,IC50,6.17 ± 2.03 µM
CCN(CC)CCCC(C)Nc1nc(C)cc(Nc2ccc3nc(C)cc(N)c3c2)n1 (centres unmarked),Probable G-protein coupled receptor 34,"antagonist, Tango",,together with: LysoPS 5 µM,,IC50,> 10 µM

# Repeated from above:
Compound,tested on,test,system,setting,scale,measurement,result
Cc1cc(Nc2ccc(C(C)(C)C)cc2)n2ncnc2n1,"Dihydroorotate dehydrogenase (quinone) (pyrD, Acinetobacter baumannii, UniProt B7GZW7)","enzyme activity, inhibitor, DCIP steady-state rate",,,,IC50,0.44 ± 0.14 µM
CC(C)C[C@H](NC(=O)[C@H](CCc1ccccc1)NC(=O)CN1CCOCC1)C(=O)N[C@@H](Cc1ccccc1)C(=O)N[C@@H](CC(C)C)C(=O)[C@@]1(C)CO1,"Proteasome subunit beta type-1/Psmb8, LMP7 subunit (Mus musculus, UniProt O09061+P28063)",proteasome subunit activity,Ba/F3 BCR-ABL1 H396P,1 h pulse,,IC50,0.00566 ± 0.00013 µM
Nc1ccccc1C(=O)C[C@H](N)C(=O)O,,"binding, MIDAS equilibrium dialysis LC-MS",A2AR-BRIL thermostabilized,concentration not given,reference: no-protein control,log2 fold change,-0.136
COc1ccc(N2CCNCC2COc2ccc3c(c2)OCO3)cc1 (centres unmarked),P2RX4,"Ca2+ flux, antagonist",human cells expressing P2RX4,racemate tested,,IC50,7.41 µM
